Results of several laboratories.
Every numbered part comes from another study and shows a few of its results, in no order. Positions count from the first letter of the parent shown.

Sample 1 — technique: RNA Bind-n-Seq; molecule type: RNA; medium: in vitro; tested at: 200 nM; notes: whole 134-nt RNA, ends assumed; with: 150 mM KCl; reference: input library; reading: higher = stronger binding
Target: Ras GTPase-activating protein-binding protein 1, full length (G3BP1, Homo sapiens, UniProt Q13283)
Chain of UniProt Q13283 (whole entry, looked up): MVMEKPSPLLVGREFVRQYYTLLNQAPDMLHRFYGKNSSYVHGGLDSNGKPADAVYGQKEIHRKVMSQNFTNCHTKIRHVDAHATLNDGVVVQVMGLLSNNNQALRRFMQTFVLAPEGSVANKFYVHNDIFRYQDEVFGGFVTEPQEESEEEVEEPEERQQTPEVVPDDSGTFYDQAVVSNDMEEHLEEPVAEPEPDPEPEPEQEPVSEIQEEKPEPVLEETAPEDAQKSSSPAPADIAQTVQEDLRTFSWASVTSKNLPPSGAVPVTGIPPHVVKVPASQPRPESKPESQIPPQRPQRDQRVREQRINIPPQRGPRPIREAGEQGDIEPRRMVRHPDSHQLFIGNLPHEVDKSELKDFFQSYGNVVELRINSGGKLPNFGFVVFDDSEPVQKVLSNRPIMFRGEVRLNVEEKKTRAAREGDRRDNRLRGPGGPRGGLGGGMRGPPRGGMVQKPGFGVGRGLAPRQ
Constant ends, left off below: GGGAGUUCUACAGUCCGACGAUC … UGGAAUUCUCGGGUGUCAAGG
| Sequence | log2 enrichment |
| --- | --- |
| AAGUCCUGUGCUACACAUCGUAUGUACCGAAUCGGGGUUUGGGGAAAGGGGAGGGGAAAGUAUUAUGUUACGCCGUUCGGAUCUGCACUU | 0.805 |
| AAGUCCUGUGCUACACAUCGUAUGUACCGAAUCGGUUUGGUUUUUGGAAAAAAAGGAAAGUAUUAUGUUACGCCGUUCGGAUCUGCACUU | -1.19 |
| UCAAGUCCUGUGCUACACAUCGUAUGUACCGAAUCGGGGUUGGGGUUGGGGUUGGAAAGUAUUAUGUUACGCCGUUCGGAUCUGCACUUC | 0.215 |
| UUGCUGUCACCCGCUGCCUGUCUGCAGGAUCCCGGAUUCCGUAUCAGGGGACCGAAAUUAGUCGGAAAAUAGGAAGCAGGUGCUCGCUUG | -1.59 |
| CCUCAAGUCCUGUGCUACACAUCGUAUGUACCGAAUCGGGGAGGGAGGAGGGGAAAGUAUUAUGUUACGCCGUUCGGAUCUGCACUUCCA | 1.21 |
| UGUUGUCUGGGUUUGGGGGUCGAGUAGAUGCGGGGCAGCCGGAGCUGUUGACGGAAAGGAGUAGCCCCAAAGGAGGGCAUGUGAAGUCGC | -0.348 |
| UCUAACUAAUUUUUCUUUGUUUUUUAACAGGAGAGGAGAUACUUACCCUUAAGUCAAGCCAGAAAAAGUGGUUUCCAAAUGGAUUGGCUG | -0.931 |
| CCUGUGCUACACAUCGUAUGUACCGAAUCGGAAAAAAGGGGAAAAAAGGGGAAAAAAGGGAAAGUAUUAUGUUACGCCGUUCGGAUCUGC | -0.721 |

Sample 2 — technique: DHFR PCA, deep sequencing; medium: yeast; with: (+)-ABA 0.11 µM; reference: wild-type fitted maximum; reading: higher = stronger binding
Target: ABI1, truncated, D143A, DHFR fusion (Arabidopsis thaliana)
Notes: methotrexate growth selection, single substitutions
Starting sequence: PYL1, truncated, DHFR fusion (Arabidopsis thaliana); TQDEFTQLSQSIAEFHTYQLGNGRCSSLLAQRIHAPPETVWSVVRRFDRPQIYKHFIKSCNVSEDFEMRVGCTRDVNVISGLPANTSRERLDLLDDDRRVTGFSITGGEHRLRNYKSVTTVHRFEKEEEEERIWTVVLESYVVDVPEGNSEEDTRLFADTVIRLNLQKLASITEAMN; partner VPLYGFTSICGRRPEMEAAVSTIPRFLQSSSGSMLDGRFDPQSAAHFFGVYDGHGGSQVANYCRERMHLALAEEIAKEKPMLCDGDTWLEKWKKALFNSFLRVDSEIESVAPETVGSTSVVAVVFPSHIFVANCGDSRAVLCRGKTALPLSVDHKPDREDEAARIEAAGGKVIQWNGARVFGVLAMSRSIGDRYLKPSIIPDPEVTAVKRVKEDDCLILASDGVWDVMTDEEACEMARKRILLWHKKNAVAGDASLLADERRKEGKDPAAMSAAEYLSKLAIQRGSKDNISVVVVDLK
| Variant | relative binding score |
| --- | --- |
| D96Q | -1.25% |
| E4C | 25% |
| A84R | 3.56% |
| V143R | -3.78% |
| L138V | 2.16% |
| E14H | 2.8% |
| K168T | 16% |
| S171C | 29.3% |
| R74H | -1.22% |
| E129S | 46.7% |
| V62D | -3.81% |
| D48V | -3.08% |
| T135Y | -6.46% |
| N165I | 4.91% |
| G148L | -3.27% |
| T101F | 65.3% |

Sample 3 — technique: RNA Bind-n-Seq; molecule type: RNA; medium: in vitro; tested at: 365 nM; reference: no-protein control; reading: higher = stronger binding
Target: RNA binding protein fox-1 homolog 2, RRM domain, GST-SBP tag (RBFOX2, Homo sapiens, UniProt O43251-10, residues 100-194)
Notes: natural RNA segment, single round, ends assumed
Constant ends, left off below: GGGAGUUCUACAGUCCGACGAUC … UGGAAUUCUCGGGUGCCAA
Residues (chain): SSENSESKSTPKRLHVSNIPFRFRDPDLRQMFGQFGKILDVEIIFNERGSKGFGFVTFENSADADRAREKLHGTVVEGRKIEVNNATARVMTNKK
| Sequence | RBNS enrichment (R) |
| --- | --- |
| CUGUCGCCCAGGCUGAAGUGCGGUGGCGCGAUCUCGGCUCACUGCAAGCUCCACCUCCCAGGUUCACGCCAUUCUCCUGCCUCAGCCUCCCUAGUAGUUGGGACUACAGG | 0.517 |
| AGUUCAAACCUUCUGAGCCCUGCUGGGGACUUUUUUUUAGGCUGGGCCUUCUUCUCCAGAAGGCUGUUGCUGUCACUUGCUGCUAGGAGCCUCCAAGCUGAUCAAGCAAU | 0.281 |
| CCUUCCCUGGAGAGAAAGUGUGUGAUUUCUCUCCCACCUCCUUCCCCCCACCAGACCUUUGCUGGGCCUAAAGGUCUUGGCCAUGGGGACGCCCUCAGUCUAGGGAUCUG | 1.21 |
| GGGUUGGUUGCAGUUGAGUUGUUGUCUGGCCGUCUGUAUUUGGAUCUUUAACUGUACUUUGCCUGGCGCUGUGCGCAAGGUCUGAAACCUUAUUGCUAGUACCUAGAAAC | 0.876 |
| UUAACACCAGUAACCGAUUUUAGGACCUUGAGCAAGUUAAAUAACUUCUUCCUGCCUUGGUUUCCCCGUCAGAAAUGGGGAACAGUGGUAGCUACCUCAUAACUUGUAAA | 0.24 |
| GUGAUUUCAUAGAUAAUAUAUUUAAUAUGACAGAUUAUGUUUCAACUCUGUAGAUGUUUAACGUCAUAGACAGUUGGCCCUCUGUAUCCGUGAGCUCUAUAUCUGUGAAU | 0.422 |
| UGUGUAUCUAUACAUAUGGCUCUUGAGGACUUAGCUUUCACUACACUACAGGAUAUGAUCUCCAUGUAGUCCAUAUAAACCUGCAGAGUGAUUUUCCAGAGUGCUCGAUA | 0.438 |
| GGGGCUUCUGGGCCCCUGGGUAUCCCCACCUGUCGUGGCCACACCUCUGCCUGCCUCAUGCCCCUUCCCCCUGGCCUACCAAGGACAGCCCACAGCCCGCACUGCCGGCU | 1.14 |

Sample 4 — technique: protein binding microarray; molecule type: double-stranded DNA, one strand shown; medium: in vitro; tested at: not given; reference: not given; reading: higher = stronger binding
Target: Histone acetyltransferase KAT6A, winged helix 1, GST fusion (KAT6A, Homo sapiens, UniProt Q92794, residues 1-85)
Notes: 8-mer, flanks averaged, mean of 2 arrays, mostly near background
Construct (chain): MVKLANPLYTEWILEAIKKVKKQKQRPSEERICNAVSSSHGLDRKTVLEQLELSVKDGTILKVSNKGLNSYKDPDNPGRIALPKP
| Sequence | E-score |
| --- | --- |
| GTGTCAAA | -0.242 |
| GCATCCTA | -0.0326 |
| AAGACCCT | -0.203 |
| GCCGAAGA | 0.122 |
| AGAGTTAC | -0.144 |
| GCTTAGAA | -0.0613 |
| ACTGAAGC | 0.0238 |
| GGTCGACC | 0.286 |
| ACCGTCGG | 0.459 |
| CTCGAGGA | -0.302 |
| ATGGCGCA | 0.168 |
| GCATTAGC | 0.101 |
| CCCGTGTA | 0.218 |
| ACTGGCCG | 0.229 |
| ACCACTCG | -0.0227 |
| AAAAGCGC | 0.303 |
| TGTCCGAA | 0.0331 |
| TGCCTACA | -0.0928 |
| AGTAATTG | -0.0801 |

Sample 5 — technique: universal PBM; molecule type: double-stranded DNA, one strand shown; medium: in vitro; tested at: not given; reading: higher = stronger binding
Target: Sal-like protein 4, full length isoform B (SALL4, Homo sapiens, UniProt Q9UJQ4-2, residues 1-616)
Notes: 8-mer, flanks averaged, mean of replicates
Target sequence (chain): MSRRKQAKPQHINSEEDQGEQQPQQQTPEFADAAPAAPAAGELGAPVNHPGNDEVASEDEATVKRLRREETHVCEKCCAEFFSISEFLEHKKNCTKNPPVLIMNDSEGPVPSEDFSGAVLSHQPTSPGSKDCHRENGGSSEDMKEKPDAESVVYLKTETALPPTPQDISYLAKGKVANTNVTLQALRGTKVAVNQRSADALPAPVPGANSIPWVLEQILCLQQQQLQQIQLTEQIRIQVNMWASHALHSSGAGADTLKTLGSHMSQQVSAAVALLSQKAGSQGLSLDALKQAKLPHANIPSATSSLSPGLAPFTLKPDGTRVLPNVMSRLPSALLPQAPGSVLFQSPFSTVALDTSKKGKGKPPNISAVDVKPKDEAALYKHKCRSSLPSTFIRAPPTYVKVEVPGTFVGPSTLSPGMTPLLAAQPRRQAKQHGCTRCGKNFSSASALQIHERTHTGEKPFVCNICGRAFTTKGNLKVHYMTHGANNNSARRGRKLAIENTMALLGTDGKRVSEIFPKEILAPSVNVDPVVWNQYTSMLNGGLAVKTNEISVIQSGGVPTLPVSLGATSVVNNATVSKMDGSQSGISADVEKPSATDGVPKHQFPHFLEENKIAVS
| Sequence | E-score |
| --- | --- |
| AATCCCTA | 0.013 |
| GTACGTAC | 0.0121 |
| AACGATCG | 0.0995 |
| CTCGGCAA | -0.108 |
| GGACAGCA | -0.094 |
| ATTGGTTG | 0.0411 |
| GCCAGAAA | -0.0653 |
| TAGGTGAA | 0.0292 |
| ACAGCCGC | -0.347 |
| CCGGTTCG | -0.315 |
| GCAACTAA | 0.00066 |
| CGTGATTA | 0.169 |
| AGGTTGCG | -0.0506 |
| CAGTTTCA | -0.00449 |
| AGTCCCAC | -0.11 |
| CTCCCTTC | -0.335 |
| ACTGGAGG | -0.125 |
| AATATCTA | 0.375 |
| ATAACGTG | 0.247 |
| ATACCAAA | 0.271 |
| ATACAGCA | 0.219 |
| TTCCAGAA | 0.0177 |
| GACCAGAA | -0.00205 |
| GTACCATA | 0.0965 |
| AAAGGGTC | -0.0367 |

A few entries again (sample 5):
| Sequence | E-score |
| --- | --- |
| CGTGATTA | 0.169 |
| AGGTTGCG | -0.0506 |
| CAGTTTCA | -0.00449 |
| AGTCCCAC | -0.11 |
| CTCCCTTC | -0.335 |
| ACTGGAGG | -0.125 |
| AATATCTA | 0.375 |
| ATAACGTG | 0.247 |
| ATACCAAA | 0.271 |
